{"data": "Measured values pooled from the literature", "Oprd1": "Delta-type opioid receptor (Oprd1, Rattus norvegicus, UniProt P33533)", "Acot1": "Acot1 (Mus musculus, UniProt O55137)", "note": "Protocols differ between the studies behind these lines. Values joined by “and” are separate records of one study, mostly repeats; a detail may differ. ± gives the spread as reported.", "sequence of UniProt P33533 (whole entry, looked up)": "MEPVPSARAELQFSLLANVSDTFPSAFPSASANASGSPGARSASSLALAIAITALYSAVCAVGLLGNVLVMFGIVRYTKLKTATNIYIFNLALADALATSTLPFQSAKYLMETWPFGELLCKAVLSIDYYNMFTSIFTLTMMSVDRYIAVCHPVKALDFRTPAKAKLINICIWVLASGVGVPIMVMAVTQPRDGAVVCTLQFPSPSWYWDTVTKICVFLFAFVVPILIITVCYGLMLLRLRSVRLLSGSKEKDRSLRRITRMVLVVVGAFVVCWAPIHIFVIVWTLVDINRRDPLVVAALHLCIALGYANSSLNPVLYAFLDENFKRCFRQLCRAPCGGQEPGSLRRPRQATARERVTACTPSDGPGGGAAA", "sequence of UniProt P63086 (whole entry, looked up)": "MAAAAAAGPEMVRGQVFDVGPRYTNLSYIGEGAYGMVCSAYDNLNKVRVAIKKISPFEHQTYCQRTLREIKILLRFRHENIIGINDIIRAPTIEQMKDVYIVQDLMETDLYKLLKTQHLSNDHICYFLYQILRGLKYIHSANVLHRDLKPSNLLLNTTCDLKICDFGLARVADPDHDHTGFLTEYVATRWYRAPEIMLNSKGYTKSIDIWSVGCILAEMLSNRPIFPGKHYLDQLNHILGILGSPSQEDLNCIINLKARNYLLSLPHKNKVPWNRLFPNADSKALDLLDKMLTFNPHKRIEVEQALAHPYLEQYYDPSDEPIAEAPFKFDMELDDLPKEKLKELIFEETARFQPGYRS", "sequence of UniProt Q00987 (whole entry, looked up)": "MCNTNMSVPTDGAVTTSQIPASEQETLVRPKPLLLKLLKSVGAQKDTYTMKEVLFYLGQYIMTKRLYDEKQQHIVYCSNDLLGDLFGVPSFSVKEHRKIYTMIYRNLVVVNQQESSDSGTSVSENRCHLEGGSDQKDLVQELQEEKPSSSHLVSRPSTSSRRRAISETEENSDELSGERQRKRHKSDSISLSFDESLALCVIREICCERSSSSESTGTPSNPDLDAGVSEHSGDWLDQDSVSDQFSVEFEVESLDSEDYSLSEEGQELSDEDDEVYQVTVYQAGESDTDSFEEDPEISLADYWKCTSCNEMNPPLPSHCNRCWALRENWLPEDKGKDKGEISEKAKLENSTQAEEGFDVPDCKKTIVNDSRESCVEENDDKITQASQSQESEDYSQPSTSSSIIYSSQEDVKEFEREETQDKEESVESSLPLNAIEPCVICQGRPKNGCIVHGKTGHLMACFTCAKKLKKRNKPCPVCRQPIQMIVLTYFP", "sequence of UniProt Q9UH17 (whole entry, looked up)": "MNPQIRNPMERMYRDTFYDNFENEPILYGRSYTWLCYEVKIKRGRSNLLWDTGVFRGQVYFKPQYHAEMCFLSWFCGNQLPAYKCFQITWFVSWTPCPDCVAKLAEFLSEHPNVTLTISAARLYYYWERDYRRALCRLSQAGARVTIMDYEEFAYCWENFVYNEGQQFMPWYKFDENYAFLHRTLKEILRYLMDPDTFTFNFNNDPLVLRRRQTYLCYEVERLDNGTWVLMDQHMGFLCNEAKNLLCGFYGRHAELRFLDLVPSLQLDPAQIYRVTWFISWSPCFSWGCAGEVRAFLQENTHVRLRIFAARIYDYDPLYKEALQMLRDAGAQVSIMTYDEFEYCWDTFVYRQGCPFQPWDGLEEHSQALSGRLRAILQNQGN", "sequence of UniProt Q9UM07 (whole entry, looked up)": "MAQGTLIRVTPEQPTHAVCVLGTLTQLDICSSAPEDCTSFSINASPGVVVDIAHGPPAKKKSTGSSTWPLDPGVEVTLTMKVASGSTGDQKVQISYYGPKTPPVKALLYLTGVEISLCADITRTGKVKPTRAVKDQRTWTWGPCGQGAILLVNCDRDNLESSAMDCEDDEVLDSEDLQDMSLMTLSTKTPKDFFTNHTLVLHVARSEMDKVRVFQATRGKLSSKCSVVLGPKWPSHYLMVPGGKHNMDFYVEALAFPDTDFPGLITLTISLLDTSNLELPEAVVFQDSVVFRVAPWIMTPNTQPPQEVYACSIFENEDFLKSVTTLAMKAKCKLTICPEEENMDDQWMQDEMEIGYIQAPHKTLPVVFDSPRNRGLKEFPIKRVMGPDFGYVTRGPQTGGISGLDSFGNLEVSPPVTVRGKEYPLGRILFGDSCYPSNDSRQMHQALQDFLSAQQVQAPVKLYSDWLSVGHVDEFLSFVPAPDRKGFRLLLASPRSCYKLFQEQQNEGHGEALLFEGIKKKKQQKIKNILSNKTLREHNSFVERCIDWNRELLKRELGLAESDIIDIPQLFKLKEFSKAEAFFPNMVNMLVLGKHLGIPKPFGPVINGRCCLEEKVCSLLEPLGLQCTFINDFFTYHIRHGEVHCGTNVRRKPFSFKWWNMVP", "sequence of UniProt D0VWV4 (whole entry, looked up)": "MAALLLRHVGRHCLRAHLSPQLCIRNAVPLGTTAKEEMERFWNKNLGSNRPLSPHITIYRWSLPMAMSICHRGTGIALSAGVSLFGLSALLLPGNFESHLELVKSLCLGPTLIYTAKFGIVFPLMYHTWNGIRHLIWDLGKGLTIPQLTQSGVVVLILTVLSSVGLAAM", "sequence of UniProt A5GZW8 (whole entry, looked up)": "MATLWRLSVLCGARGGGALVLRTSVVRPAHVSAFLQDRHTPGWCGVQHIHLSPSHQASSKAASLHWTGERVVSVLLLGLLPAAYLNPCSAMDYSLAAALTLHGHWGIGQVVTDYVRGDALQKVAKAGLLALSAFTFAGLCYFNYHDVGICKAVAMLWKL", "sequence of UniProt O55137 (whole entry, looked up)": "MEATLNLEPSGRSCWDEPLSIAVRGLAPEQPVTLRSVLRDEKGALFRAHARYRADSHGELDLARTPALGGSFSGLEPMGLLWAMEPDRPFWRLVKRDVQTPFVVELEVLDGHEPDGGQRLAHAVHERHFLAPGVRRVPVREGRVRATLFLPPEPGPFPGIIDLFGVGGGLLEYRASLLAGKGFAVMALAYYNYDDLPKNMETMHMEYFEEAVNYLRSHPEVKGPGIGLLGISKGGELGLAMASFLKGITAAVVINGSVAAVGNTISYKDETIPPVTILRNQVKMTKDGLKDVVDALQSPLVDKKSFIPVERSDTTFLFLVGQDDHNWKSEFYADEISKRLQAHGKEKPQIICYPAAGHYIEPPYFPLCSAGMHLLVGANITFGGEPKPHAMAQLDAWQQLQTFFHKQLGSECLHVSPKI", "sequence of UniProt Q007T0 (whole entry, looked up)": "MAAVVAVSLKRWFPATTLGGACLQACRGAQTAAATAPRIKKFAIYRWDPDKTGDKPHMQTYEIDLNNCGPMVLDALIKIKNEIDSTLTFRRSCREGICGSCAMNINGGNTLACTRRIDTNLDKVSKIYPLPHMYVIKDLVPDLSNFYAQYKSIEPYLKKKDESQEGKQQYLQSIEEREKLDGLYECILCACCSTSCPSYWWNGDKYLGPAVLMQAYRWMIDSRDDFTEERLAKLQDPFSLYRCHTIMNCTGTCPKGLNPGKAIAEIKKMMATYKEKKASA", "sequence of UniProt P20273 (whole entry, unmodified, looked up)": "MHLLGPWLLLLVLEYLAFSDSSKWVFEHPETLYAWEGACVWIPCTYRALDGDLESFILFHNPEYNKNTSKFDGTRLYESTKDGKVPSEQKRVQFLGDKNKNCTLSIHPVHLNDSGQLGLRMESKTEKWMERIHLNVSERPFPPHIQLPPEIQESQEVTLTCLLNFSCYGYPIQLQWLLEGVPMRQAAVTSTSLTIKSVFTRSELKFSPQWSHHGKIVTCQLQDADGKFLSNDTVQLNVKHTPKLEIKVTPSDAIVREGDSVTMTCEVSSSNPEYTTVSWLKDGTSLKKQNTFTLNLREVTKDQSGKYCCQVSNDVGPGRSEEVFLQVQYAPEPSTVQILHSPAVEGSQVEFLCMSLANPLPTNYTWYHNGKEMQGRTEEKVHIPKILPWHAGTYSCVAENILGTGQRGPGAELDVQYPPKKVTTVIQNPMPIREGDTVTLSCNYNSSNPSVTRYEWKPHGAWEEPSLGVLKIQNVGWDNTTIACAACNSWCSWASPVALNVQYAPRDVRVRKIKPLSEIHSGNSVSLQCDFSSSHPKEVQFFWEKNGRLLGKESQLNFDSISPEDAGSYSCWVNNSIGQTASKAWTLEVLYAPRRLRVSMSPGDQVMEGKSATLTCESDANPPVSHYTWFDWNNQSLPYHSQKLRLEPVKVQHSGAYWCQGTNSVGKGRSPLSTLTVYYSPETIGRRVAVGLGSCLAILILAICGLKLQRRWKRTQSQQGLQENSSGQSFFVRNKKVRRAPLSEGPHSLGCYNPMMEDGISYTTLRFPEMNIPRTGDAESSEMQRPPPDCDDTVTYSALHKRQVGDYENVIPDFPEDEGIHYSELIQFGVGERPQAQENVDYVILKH", "sequence of UniProt P17787 (whole entry, looked up)": "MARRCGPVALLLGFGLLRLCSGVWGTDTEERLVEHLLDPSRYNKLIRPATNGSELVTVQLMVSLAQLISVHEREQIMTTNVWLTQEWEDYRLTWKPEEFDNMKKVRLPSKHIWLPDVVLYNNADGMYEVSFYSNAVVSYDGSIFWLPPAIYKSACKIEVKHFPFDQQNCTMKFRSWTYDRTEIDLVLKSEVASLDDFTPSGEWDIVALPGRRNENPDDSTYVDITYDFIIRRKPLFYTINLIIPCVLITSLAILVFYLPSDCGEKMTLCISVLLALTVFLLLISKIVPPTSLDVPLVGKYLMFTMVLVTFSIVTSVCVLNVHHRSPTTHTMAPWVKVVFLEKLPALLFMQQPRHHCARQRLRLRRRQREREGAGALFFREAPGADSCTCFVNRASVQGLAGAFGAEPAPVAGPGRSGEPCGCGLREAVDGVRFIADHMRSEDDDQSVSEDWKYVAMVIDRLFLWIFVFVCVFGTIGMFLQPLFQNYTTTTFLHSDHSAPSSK", "sequence of UniProt P38489 (whole entry, looked up)": "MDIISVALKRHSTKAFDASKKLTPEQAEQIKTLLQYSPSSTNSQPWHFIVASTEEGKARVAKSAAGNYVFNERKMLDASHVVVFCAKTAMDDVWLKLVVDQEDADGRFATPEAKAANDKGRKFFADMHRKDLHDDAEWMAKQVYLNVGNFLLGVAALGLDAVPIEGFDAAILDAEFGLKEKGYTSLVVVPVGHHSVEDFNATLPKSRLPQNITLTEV"}
{"Compound": "CN(C)CCCSC(=S)N1CCN(C(=O)/C=C/c2coc3ccccc3c2=O)CC1", "target": "Nucleoprotein (N, Tomato spotted wilt virus, UniProt P25999, Y184A)", "test": "binding, microscale thermophoresis", "setting": "0.9766 µM", "scale": "dose series", "endpoint": "MST response", "value": "837 a.u."}
{"Compound": "CC[C@@H](C)[C@@H]1CN([C@H](Cc2ccc3ccccc3c2)CN2CCC[C@H]2CN2CCNC[C@@H]2Cc2ccc3ccccc3c2)CCN1CCC12CC3CC(CC(C3)C1)C2", "target": "Oprd1", "test": "radioligand binding", "system": "rat brain membranes", "setting": "500 nM, pH 7.5, 25 °C, added: 2 nM [3H]DPDPE", "endpoint": "remaining binding", "value": "95.2%"}
{"Compound": "CC[C@H](C)[C@@H]1NC(=O)[C@H](CC(C)C)NC(=O)CNC(=O)[C@H](CCCNC(=N)N)NC(=O)[C@H](Cc2c[nH]c3ccccc23)NC(=O)[C@H](CCSC)NC(=O)[C@H](CO)NC(=O)[C@H](CCC(=O)O)NC(=O)[C@H](Cc2ccccc2)NC(=O)[C@H](CC(=O)O)NC(=O)[C@H]([C@@H](C)O)NC(=O)CNC(=O)[C@H](CCC(=O)O)NC(=O)[C@H]([C@@H](C)O)NC(=O)CNC(=O)[C@H](CC(=O)O)NC1=O", "target": "MDM2 (Homo sapiens, UniProt Q00987)", "test": "MDM2-ligand binding, inhibitor, AlphaLISA competition", "setting": "1.562 µM, added: GST-tagged MDM2 ligand", "scale": "lower = stronger inhibition", "endpoint": "AlphaLISA signal", "value": "3520 a.u. and 3130 a.u. and 3410 a.u."}
{"Compound": "Cc1ncc([N+](=O)[O-])n1CC(O)Cn1cc(CO[C@]2(C(=O)O)C[C@H](O)[C@@H](NC(=O)CF)[C@H]([C@H](O)[C@H](O)CNC(=O)c3ccc(Oc4ccccc4)cc3)O2)nn1 (some centres unmarked)", "target": "CD22 (Homo sapiens, UniProt P20273)", "test": "isothermal titration calorimetry", "endpoint": "-TΔS", "value": "0.879 ± 0.126 kJ/mol"}
{"Compound": "CCn1nc(Cl)c2c1-c1cnc(N)c(c1)O[C@H](C)c1cc(F)ccc1-c1nn(C)cc1C2", "target": "FES (Homo sapiens, UniProt P07332)", "test": "kinase activity, inhibitor", "scale": "baseline: IC50 FES over IC50 ALK", "endpoint": "selectivity ratio", "value": "146 fold"}
{"Compound": "CC[C@H](C)[C@@H]1NC(=O)[C@H](CC(N)=O)NC(=O)[C@@H]2CCCN2C(=O)[C@@H](NC(=O)[C@H](CC(N)=O)NC(=O)[C@@H](N)CCC(N)=O)COC(=O)CN(CCSC)C(=O)[C@H](Cc2c[nH]c3ccccc23)NC(=O)[C@H](CCC(N)=O)NC(=O)CNC(=O)[C@H](Cc2ccccc2)NC1=O", "target": "Fsr quorum sensing protein (Enterococcus faecalis, UniProt A0ACD6TCR9)", "test": "cell-based activity", "setting": "concentration not given", "endpoint": "activity", "value": "inactive"}
{"Compound": "C=C(c1ccccc1)[C@@H](N)P(=O)(O)O", "target": "PAL1 (Petroselinum crispum, UniProt P24481, Y110F)", "test": "binding, ITC", "endpoint": "ΔG", "value": "-39.3 kJ/mol"}
{"Compound": "COc1c(N2CC3CCCN(C(=O)OCc4cnc([N+](=O)[O-])s4)C3C2)c(F)cc2c(=O)c(C(=O)O)cn(C3CC3)c12 (centres unmarked)", "target": "nfsB (Escherichia coli K-12, UniProt P38489)", "test": "substrate", "setting": "added: NADH 100 µM", "endpoint": "kcat", "value": "3.65 s⁻¹"}
{"Compound": "CCCC[C@H]1CNCCN1C[C@@H]1CCCN1C[C@H](CC1CCCCC1)N1CCN(CCCC2CCCC2)[C@H]([C@@H](C)O)C1", "target": "Oprd1", "test": "radioligand binding", "system": "rat brain membranes", "setting": "500 nM, pH 7.5, 25 °C, added: 2 nM [3H]DPDPE", "endpoint": "remaining binding", "value": "97.8%"}
{"Compound": "N[C@H](C(=O)N1CCCC1)C1CCN(c2nccc3c(-c4ncc(Cl)cc4Cl)cccc23)CC1", "target": "PADI4 (Homo sapiens, UniProt Q9UM07)", "test": "thermal shift", "setting": "0.3009 µM", "endpoint": "melting temperature", "value": "53.5 °C and 53.3 °C"}
{"Compound": "CON(C(=O)c1cn(C)nc1C(F)F)C(C)Cc1c(Cl)cc(Cl)cc1Cl (centres unmarked)", "target": "SDHD/SDHC/SDHB (Sus scrofa, UniProt A5GZW8+D0VWV4+Q007T0)", "test": "enzyme activity, inhibitor, DCIP reduction", "system": "pig", "setting": "0.6 µM, added: DCIP 5 µM", "endpoint": "reaction velocity", "value": "0.00104 µM/s and 0.001 µM/s"}
{"Compound": "COCC1CCCCN1C(=O)n1cc(C(O)(c2ccccc2)c2ccccc2)nn1 (centres unmarked)", "target": "Acot1", "test": "probe labelling, inhibitor, competitive ABPP-SILAC", "system": "mouse T cells", "setting": "concentration not given, 4 h, protein level", "scale": "baseline: treated over DMSO cells, lower = stronger inhibition", "endpoint": "SILAC activity ratio", "value": 1.02}
{"Compound": "CCCc1cc2cc(-n3nc(C4CC4)c4c3CC(C)(C)CC4=O)cc(N3CCC(O)CC3)c2c(=O)[nH]1", "target": "HSP90AB1 (Homo sapiens, UniProt P08238)", "test": "fluorescence polarization", "scale": "baseline: apparent KD Hsp90α over apparent KD HSP90AB1", "endpoint": "selectivity ratio", "value": "> 100 fold"}
{"Compound": "CCCO[C@H]1[C@H](O)[C@@H](N)[C@@H](O[C@H]2[C@H](O[C@@H]3O[C@H](CO)[C@@H](O[C@H]4O[C@@H](CN)[C@@H](O)[C@H](O)[C@H]4N)[C@H]3O)[C@@H](O)[C@H](N)C[C@@H]2N)O[C@@H]1CO", "target": "CHRM2 (Homo sapiens, UniProt P08172)", "test": "radioligand binding", "setting": "10 µM, 1% DMSO", "endpoint": "specific binding", "value": "4%"}
{"Compound": "OC[C@H]1CNCCN1C[C@@H]1CCCN1C[C@H](CC1CCCCC1)N1CCN(CCCC2CCCC2)[C@H](Cc2ccc(O)cc2)C1", "target": "Oprd1", "test": "radioligand binding", "system": "rat brain membranes", "setting": "500 nM, pH 7.5, 25 °C, added: 2 nM [3H]DPDPE", "endpoint": "remaining binding", "value": "91.8%"}
{"Compound": "C=CC(=O)Nc1cc(-c2ccc(C(=O)N3CCCC(O)(CC)C3)cc2)ccc1F (centres unmarked)", "target": "DNA dC->dU-editing enzyme APOBEC-3B, C-terminal domain (Homo sapiens, UniProt Q9UH17)", "test": "covalent adduct, intact protein MS, item: mass +397 Da adduct of 25735 Da", "setting": "500 µM, 1 h, 20-fold molar excess", "endpoint": "adducted protein", "value": "35% and 44%"}
{"Compound": "C#CCCCCOc1ccc2c(c1)CCCN2C(=O)CCl", "target": "CD44 antigen (Homo sapiens, UniProt P16070)", "test": "MS-ABPP alkyne probe", "system": "H460 cell lysate", "scale": "baseline: high over low probe", "endpoint": "cysteine reactivity ratio", "value": 0.984}
{"Compound": "CC(C)[C@H]1NC(=O)C[C@H]2/C=C/CCSSC[C@@H](NC1=O)C(=O)N[C@H](Cc1cccc3ccccc13)C(=O)NCC(=O)O2", "target": "PRKG1 (Homo sapiens, UniProt Q13976)", "test": "enzyme activity, inhibitor", "setting": "10 µM", "endpoint": "inhibition", "value": "-4.7%"}
{"Compound": "CCCCC/C=C\\C/C=C\\C/C=C\\C/C=C\\CCCC(=O)NCCc1ccc(O)c(O)c1", "target": "Trpv1 (Mus musculus, UniProt Q704Y3, E571A)", "test": "patch clamp", "setting": "E571A mutant channel", "scale": "baseline: 3 mM 2-APB current", "endpoint": "maximal open probability", "value": "0.42 ± 0.07"}
{"Compound": "CN[C@@H]1[C@H](O)[C@H](NC)[C@H]2O[C@]3(O)[C@H](O[C@@H]2[C@H]1O)O[C@H](C)C[C@H]3NC(=O)Cc1cc(Cl)ccn1", "target": "Interleukin-1 receptor type 1 (Il1r1, Mus musculus, UniProt P13504)", "setting": "10 µM", "endpoint": "inhibition", "value": "-1%"}
{"Compound": "CCOC(=O)[C@@H]1Cc2c(cc([N+](=O)[O-])cc2[N+](=O)[O-])[C@H](O)[C@]12C(=O)Nc1ccc(Br)cc12", "target": "KIT (Homo sapiens, UniProt P10721, D816V)", "test": "binding, competition with immobilised ligand", "setting": "0.1 µM", "endpoint": "remaining binding", "value": "84%"}
{"Compound": "CS(C)(=O)=Nc1ccc(-c2ccc(-c3nc4cc(O[C@@H]5CO[C@H]6[C@@H]5OC[C@H]6O)[nH]c4cc3F)cc2)cc1", "target": "PTK2B (Homo sapiens, UniProt Q14289)", "test": "enzyme activity, inhibitor", "setting": "10 µM", "endpoint": "inhibition", "value": "-8%"}
{"Compound": "CN(C)[C@H]1C[C@@]23CC[C@@]4(O2)C(=CC[C@]2(C)[C@@H](c5ccc6ccncc6c5)CC[C@H]24)C=C3[C@@H](O)[C@@H]1O", "target": "MAST3 (Homo sapiens, UniProt O60307)", "test": "ATP probe labelling, inhibitor, KiNativ profiling", "setting": "1 µM", "endpoint": "inhibition", "value": "1.1%"}
{"Compound": "CC(C)CC(O)(CC(C)C)c1cn(C(=O)N2CCCC2)nn1", "target": "Acot1", "test": "enzyme activity, inhibitor", "system": "mouse, brain", "setting": "i.p., 0.8 mg/kg, 4 h, protein level", "scale": "baseline: vehicle", "endpoint": "ratio of ratios", "value": 1.25}
{"Compound": "CCc1nnc(-c2c(OC)cc(-c3cnc4cc(-c5cnn(C)c5)ccn34)cc2OC)o1", "target": "Neuronal acetylcholine receptor; alpha4/beta2 (Homo sapiens, UniProt P17787+P43681)", "test": "radioligand binding", "setting": "10 µM", "endpoint": "inhibition of specific binding", "value": "-4%"}
{"Compound": "COc1ccc(NC(=O)c2ccc3[nH]c(-c4ccc(N(C)C)cc4)nc3c2)cn1", "target": "Mapk1 (Rattus norvegicus, UniProt P63086)", "test": "proximity ligation", "system": "HeLa, ERK2 and MYD88 transfected", "setting": "concentration not given", "scale": "baseline: DMSO", "endpoint": "ERK2-MYD88 proximity", "value": "0.667 fold per cell and 0.0882 fold per cell and 0.608 fold per cell"}
{"Compound": "CC#CC(=O)NC[C@H](NC(=O)[C@H](CC1CCCCC1)NC(=O)[C@H](CCC(N)=O)NC(C)=O)C(=O)N[C@@H](CC(C)C)C(=O)N[C@@H](Cc1ccccc1)C(=O)O", "target": "Beta sliding clamp (Escherichia coli, UniProt P0A988)", "test": "binding, isothermal titration calorimetry", "setting": "22 °C", "endpoint": "ΔG", "value": "-43.9 kJ/mol"}
{"Compound": "CC(=O)N[C@H](C(=O)N[C@@H](CCCNC(=N)N)C(=O)NCC(=O)N[C@@H](CO)C(=O)N[C@@H](CS)C(=O)N[C@@H](CCCNC(=N)N)C(=O)N[C@@H](CCCCN)C(=O)N[C@@H](CCCNC(=N)N)C(=O)N[C@@H](CC(N)=O)C(=O)N[C@@H](CCCNC(=N)N)C(=O)N[C@@H](CO)C(=O)N1CCC[C@H]1C(=O)N[C@@H](CCC(=O)O)C(=O)N[C@@H](CCCNC(=N)N)C(N)=O)[C@@H](C)O", "target": "WDR5 (Homo sapiens, UniProt P61964)", "test": "binding, competitor of LANA peptide, ITC", "setting": "pH 7.0, 20 °C, WIN motif peptide", "endpoint": "ΔG", "value": "-31.8 kJ/mol"}
{"Compound": "O=C1NC(=O)c2c1c1cc(F)c[n+]3c1c1c2c2cc(O)ccc2[n]1[Ru-4]312([N]=C=S)[S+]3CC[S+]1CC[S+]2CC3 (centres unmarked)", "target": "PIM3 (Homo sapiens, UniProt Q86V86)", "test": "enzyme activity", "setting": "100 nM, human enzyme, added: 10 µM ATP", "scale": "baseline: untreated", "endpoint": "remaining activity", "value": "14%"}
{"note": "Repeated from above:"}
{"Compound": "CS(C)(=O)=Nc1ccc(-c2ccc(-c3nc4cc(O[C@@H]5CO[C@H]6[C@@H]5OC[C@H]6O)[nH]c4cc3F)cc2)cc1", "target": "PTK2B (Homo sapiens, UniProt Q14289)", "test": "enzyme activity, inhibitor", "setting": "10 µM", "endpoint": "inhibition", "value": "-8%"}
{"Compound": "Cc1ncc([N+](=O)[O-])n1CC(O)Cn1cc(CO[C@]2(C(=O)O)C[C@H](O)[C@@H](NC(=O)CF)[C@H]([C@H](O)[C@H](O)CNC(=O)c3ccc(Oc4ccccc4)cc3)O2)nn1 (some centres unmarked)", "target": "CD22 (Homo sapiens, UniProt P20273)", "test": "isothermal titration calorimetry", "endpoint": "-TΔS", "value": "0.879 ± 0.126 kJ/mol"}
